Experimental data gathered from unrelated publications.
Each numbered part is a random draw from the data of one study; scales do not carry over between parts. Changes are numbered by the printed parent chain.

Study 1
Target: RNA binding protein fox-1 homolog 2, RRM domain, GST-SBP tag (RBFOX2, Homo sapiens, UniProt O43251-10, residues 100-194)
Method: RNA Bind-n-Seq
Form: RNA
Matrix: in vitro
Tested at: 365 nM
Setting: natural RNA segment, single round, ends assumed
Baseline: no-protein control
Direction: higher = stronger binding
Target sequence (chain): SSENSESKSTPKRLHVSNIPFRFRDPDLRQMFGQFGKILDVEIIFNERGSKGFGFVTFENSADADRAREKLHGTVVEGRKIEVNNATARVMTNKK
`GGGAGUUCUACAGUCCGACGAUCGCGUGAGGACAGCAGGGGUUUUUCUUCAGAGUCUAUUUUUUCAGCGACAAGGACCCAGGUCUUCCUGCUGCUGCCAGGGAGAGCAGGGACAGUGCCGCGUGCGAGAUGAGUGGAAUUCUCGGGUGCCAA`: “RBNS enrichment (R)” 0.286.
Under “RBNS enrichment (R)”, `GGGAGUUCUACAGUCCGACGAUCUAAAUGGAAAUUGAAGACGUAAAGAAGAGCUUUCUUUUCCAAGAGACUCUGGUCUUGGCUAUGCUGAAGACUUUUUUAAAAAAUGGUUUUCAGGGAACCGUGAGGAUCUGUGGAAUUCUCGGGUGCCAA` is recorded as 0.376.
`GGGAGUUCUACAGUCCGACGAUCGAGAAGAGCUGGUGAACCAUAUAAAACUCAAAAGAUUGUCUACUUUAAGAAAUAAAAUACCCUGAAUGGAGCCAAACUCUGUCCCUGUGUGCUGUGUGUGGCUCGUGUGUUGGAAUUCUCGGGUGCCAA`: “RBNS enrichment (R)” 0.989.
For `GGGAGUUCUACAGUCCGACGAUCCAACACUGUCGCACCCUUGACCAGCACUCCUCUGUGCUGACUUCAGGCCCUGUGUGACAACAGUAAGAGCUGGGUUUUGUUAUUCUCUAGAAUGGCUCCAGCUGUGGGUGUGGAAUUCUCGGGUGCCAA`, “RBNS enrichment (R)” read 0.207.
`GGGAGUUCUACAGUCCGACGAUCACUAUUAGGAAUUGAGAAGGGGGAUCAACUAAAUAAACGAAGAGAGUCUUUCUUAUGCCUUCCUUGCGUUAUGUAAUAUUUUCUUUUUUAAAUUUCACAUGCAUGUAAUUUGGAAUUCUCGGGUGCCAA` — result for “RBNS enrichment (R)”: 13.
`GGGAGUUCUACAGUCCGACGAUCAAAUGACGUUGGUUCUAGAGACUUAGAGACUUGGGCAAUAGGAUUUAACACUGCUAGGUAGCUCAGACAUAUCAGAAAAUCCAUAGUGGCCUGAGUUGUAAAUCCAAAACUGGAAUUCUCGGGUGCCAA`: “RBNS enrichment (R)” 0.356.
For `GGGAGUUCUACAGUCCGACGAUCUCAACAGGGAAUAAACAGGCUCUAGCACAUUAAGGAUGUGGCCUAGGCUGAGUGUUACCUUAAAAUGCCUUGUGGUCUCCACCUCUAAAGCUAUAAAAGUGUCUUAGAGAUGGAAUUCUCGGGUGCCAA`, “RBNS enrichment (R)” read 0.245.
`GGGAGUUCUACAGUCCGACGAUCGCUUGCAGUAUGUCCAGCUGGUUGGCAAACACGAGGAAGCUGCAGGGCUGGACCAUGUGGCCAAGCCUGCGCCUCCUGUGGCUUACCUGCCUGCCCACCCUUCGCACAUAUGGAAUUCUCGGGUGCCAA` — result for “RBNS enrichment (R)”: 0.672.

Study 2
Target: Ras GTPase-activating protein-binding protein 1, full length (G3BP1, Homo sapiens, UniProt Q13283)
Chain of UniProt Q13283 (whole entry, looked up): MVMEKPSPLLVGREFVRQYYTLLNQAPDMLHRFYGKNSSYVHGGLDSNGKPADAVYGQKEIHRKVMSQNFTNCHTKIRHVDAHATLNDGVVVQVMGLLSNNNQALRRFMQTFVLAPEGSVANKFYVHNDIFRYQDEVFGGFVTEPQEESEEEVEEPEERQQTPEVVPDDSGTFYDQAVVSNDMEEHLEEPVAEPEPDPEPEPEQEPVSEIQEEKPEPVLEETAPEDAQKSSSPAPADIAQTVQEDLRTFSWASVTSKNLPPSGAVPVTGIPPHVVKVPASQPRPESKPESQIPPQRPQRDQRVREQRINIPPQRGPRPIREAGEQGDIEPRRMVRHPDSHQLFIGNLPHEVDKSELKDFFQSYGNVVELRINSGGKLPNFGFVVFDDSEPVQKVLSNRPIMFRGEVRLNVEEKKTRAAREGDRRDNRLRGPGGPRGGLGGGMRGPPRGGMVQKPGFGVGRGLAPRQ
Method: RNA Bind-n-Seq
Form: RNA
Matrix: in vitro
Tested at: 200 nM
Setting: whole 134-nt RNA, ends assumed
With: 150 mM LiCl
Baseline: input library
Direction: higher = stronger binding
Library: 7-deaza-guanosine replaces G
The log2 enrichment of `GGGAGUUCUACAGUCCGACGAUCAGUCCUGUGCUACACAUCGUAUGUACCGAAUCGGGAAAAGGGAAAAGGGGAAAAGGGGAAAGUAUUAUGUUACGCCGUUCGGAUCUGCACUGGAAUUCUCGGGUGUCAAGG` is reported as 0.238.
For `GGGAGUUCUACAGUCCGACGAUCAGUCCUGUGCUACACAUCGUAUGUACCGAAUCGGGUUUUUGGUUUUUGGGUUUUUGGAAAGUAUUAUGUUACGCCGUUCGGAUCUGCACUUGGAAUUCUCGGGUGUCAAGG`, the log2 enrichment was -0.94.
For `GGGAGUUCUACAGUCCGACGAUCUGGACUGCCUAUGGAAGAAGAAGUUCAAGAAGGAGCACGAGGAGUUUGAGACCAUGGAGAACGUGAACCGCCUUCUUCUGGAGAACGUCCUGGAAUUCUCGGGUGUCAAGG`, the log2 enrichment was -0.63.
The log2 enrichment of `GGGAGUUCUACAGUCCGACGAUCACCAUGCAGGUGGGCAUCUUUGGGAAGUGGGGCAAGGGGAAAAUAGGGAGGGGGGUAACACUUUGGGAACAGGUGGUCCCAGGUCGUUUCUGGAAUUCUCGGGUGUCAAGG` is reported as 0.58.
`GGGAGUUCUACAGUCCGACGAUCUCCUGUGCUACACAUCGUAUGUACCGAAUCAAAGUGUGUGUGUGUGUGUGUGUGUGUAAAAAAGUAUUAUGUUACGCCGUUCGGAUCUGCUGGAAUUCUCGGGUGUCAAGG` gave a log2 enrichment of -0.727.
With `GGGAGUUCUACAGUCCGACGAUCCUGUGCUACACAUCGUAUGUACCGAAUCGGAAAAAAAGGGAAAAAAAGGGGAAAAAAAGGGAAAGUAUUAUGUUACGCCGUUCGGAUCUGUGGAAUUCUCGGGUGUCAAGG` the log2 enrichment was -0.272.
`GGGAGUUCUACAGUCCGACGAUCCCUGUGCUACACAUCGUAUGUACCGAAUCGGGAAAAAAAGGGAAAAAAAGGAAAAAAAGGAAAGUAUUAUGUUACGCCGUUCGGAUCUGCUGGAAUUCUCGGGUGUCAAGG` gave a log2 enrichment of -0.00014.
With `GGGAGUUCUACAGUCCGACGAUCAGUCCUGUGCUACACAUCGUAUGUACCGAAUCGGGUGGGUUUUUGGGAAAAAAAGGGAAAGUAUUAUGUUACGCCGUUCGGAUCUGCACUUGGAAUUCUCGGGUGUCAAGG` the log2 enrichment was -0.708.

Study 3
Target: ABI1, truncated, D143A, DHFR fusion (Arabidopsis thaliana)
Method: DHFR PCA, deep sequencing
Matrix: yeast
Setting: methotrexate growth selection, single substitutions
With: (+)-ABA 0.11 µM
Baseline: wild-type fitted maximum
Direction: higher = stronger binding
Starting sequence: PYL1, truncated, DHFR fusion (Arabidopsis thaliana); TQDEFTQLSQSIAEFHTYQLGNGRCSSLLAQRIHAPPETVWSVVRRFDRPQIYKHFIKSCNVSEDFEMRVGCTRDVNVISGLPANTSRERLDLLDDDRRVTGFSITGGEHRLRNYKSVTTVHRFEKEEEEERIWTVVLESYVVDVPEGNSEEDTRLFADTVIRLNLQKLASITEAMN; partner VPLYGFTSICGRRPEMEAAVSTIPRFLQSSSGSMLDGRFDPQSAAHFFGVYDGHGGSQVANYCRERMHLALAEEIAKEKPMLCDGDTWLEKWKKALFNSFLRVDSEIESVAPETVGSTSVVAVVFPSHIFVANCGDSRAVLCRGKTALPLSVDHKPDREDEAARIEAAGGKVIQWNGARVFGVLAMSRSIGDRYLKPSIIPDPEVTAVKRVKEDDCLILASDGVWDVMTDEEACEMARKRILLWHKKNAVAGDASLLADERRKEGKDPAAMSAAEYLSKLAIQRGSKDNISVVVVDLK
`H34D`: “relative binding score” 46.3%.
`S104Q` — result for “relative binding score”: -8.43%.
Under “relative binding score”, `T17E` is recorded as -6.22%.
For `L29H`, “relative binding score” read 34.5%.
`E128G`: “relative binding score” 74.3%.
`G71R`: “relative binding score” -1.05%.
`S9V`: “relative binding score” 24%.
For `N61S`, “relative binding score” read 54.1%.
`D159L`: “relative binding score” -4.83%.
Under “relative binding score”, `W134Y` is recorded as 72.2%.
`K168Y` — result for “relative binding score”: 9.27%.
Under “relative binding score”, `L156F` is recorded as 2.33%.
Under “relative binding score”, `E125W` is recorded as 12.3%.
`L169F`: “relative binding score” -11.9%.

Study 4
Target: Sal-like protein 4, full length isoform A (SALL4, Homo sapiens, UniProt Q9UJQ4, residues 1-1053)
Chain of UniProt Q9UJQ4 (whole entry, looked up): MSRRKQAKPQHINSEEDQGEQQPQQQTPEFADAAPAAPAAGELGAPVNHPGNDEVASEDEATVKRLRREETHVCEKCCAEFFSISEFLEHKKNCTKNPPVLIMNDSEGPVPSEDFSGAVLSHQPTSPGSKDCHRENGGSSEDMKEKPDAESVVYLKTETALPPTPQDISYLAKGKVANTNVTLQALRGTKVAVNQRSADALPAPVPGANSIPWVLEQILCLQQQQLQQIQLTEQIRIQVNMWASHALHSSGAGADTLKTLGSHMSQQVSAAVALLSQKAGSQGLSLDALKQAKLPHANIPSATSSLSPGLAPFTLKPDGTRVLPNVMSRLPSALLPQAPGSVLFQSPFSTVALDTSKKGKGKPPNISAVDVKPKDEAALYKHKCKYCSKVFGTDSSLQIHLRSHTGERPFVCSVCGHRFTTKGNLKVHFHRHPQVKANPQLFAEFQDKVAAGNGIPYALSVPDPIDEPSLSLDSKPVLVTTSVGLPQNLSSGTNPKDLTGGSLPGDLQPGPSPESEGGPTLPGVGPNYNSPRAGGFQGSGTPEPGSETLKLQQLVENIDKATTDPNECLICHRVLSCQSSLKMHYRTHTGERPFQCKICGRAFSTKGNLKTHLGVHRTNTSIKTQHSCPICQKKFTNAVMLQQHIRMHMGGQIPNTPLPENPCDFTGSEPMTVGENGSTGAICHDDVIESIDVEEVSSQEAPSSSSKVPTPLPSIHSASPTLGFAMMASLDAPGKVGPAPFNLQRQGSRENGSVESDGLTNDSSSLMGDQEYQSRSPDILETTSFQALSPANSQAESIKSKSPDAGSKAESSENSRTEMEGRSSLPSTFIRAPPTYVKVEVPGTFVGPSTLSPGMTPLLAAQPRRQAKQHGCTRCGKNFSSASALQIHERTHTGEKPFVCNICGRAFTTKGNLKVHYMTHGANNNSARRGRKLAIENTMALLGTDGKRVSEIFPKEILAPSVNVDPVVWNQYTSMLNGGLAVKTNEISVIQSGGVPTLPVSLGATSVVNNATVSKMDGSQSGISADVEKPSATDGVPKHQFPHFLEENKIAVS
Method: universal PBM
Form: double-stranded DNA, one strand shown
Matrix: in vitro
Tested at: 600 nM
Setting: 8-mer, flanks averaged, mean of replicates
Direction: higher = stronger binding
For `ACATGTCG`, the E-score was 0.0172.
`CGCGTTGC` gave an E-score of -0.057.
For `CGAGGATC`, the E-score was -0.123.
With `CCCCAAAG` the E-score was -0.19.
With `CTTAATGA` the E-score was 0.142.
`CATTGGCC` gave an E-score of -0.235.
With `ATTGGCCG` the E-score was -0.0644.
For `ACAATCTA`, the E-score was 0.173.
For `GCTCGAGA`, the E-score was -0.162.
`CCGCCGTC` has an E-score of -0.368.
The E-score of `CGCGTAAA` is reported as 0.109.
With `ACAGCCTA` the E-score was 0.0492.
`ACCCTTCG` gave an E-score of -0.219.
For `ATGTAGAG`, the E-score was 0.141.
`CATCAGGA` has an E-score of 0.048.
`GAGGGATC` gave an E-score of -0.25.
For `CTTCTGCC`, the E-score was -0.157.

Some of these lines once more (study 4):
`CATTGGCC` gave an E-score of -0.235.
`CATCAGGA` has an E-score of 0.048.
`GAGGGATC` gave an E-score of -0.25.
The E-score of `CGCGTAAA` is reported as 0.109.
